Published values collected from several papers.
Numbered parts are unrelated; each lists some results of a single study.
UniProt Q9P0L2, sequence (whole entry, looked up): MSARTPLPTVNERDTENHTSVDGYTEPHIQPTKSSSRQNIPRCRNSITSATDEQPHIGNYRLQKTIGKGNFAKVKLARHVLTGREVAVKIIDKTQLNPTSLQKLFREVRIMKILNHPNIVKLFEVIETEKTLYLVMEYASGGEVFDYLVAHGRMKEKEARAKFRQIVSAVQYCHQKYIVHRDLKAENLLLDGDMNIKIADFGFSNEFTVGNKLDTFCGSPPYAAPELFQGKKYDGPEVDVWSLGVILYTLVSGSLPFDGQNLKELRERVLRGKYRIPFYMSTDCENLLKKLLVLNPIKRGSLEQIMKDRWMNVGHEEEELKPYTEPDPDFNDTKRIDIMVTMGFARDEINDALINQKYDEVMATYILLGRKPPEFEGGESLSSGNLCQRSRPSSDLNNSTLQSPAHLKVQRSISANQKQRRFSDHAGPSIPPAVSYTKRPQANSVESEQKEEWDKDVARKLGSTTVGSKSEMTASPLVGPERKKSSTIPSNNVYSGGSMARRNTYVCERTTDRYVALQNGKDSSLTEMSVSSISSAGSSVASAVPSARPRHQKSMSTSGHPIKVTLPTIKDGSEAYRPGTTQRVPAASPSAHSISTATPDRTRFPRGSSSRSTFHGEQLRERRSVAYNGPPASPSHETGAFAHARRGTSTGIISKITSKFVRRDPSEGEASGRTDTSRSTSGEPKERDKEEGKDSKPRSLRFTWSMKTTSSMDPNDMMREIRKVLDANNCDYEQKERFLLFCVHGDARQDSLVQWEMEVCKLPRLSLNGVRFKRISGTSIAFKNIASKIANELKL
UniProt P42680, sequence (whole entry, looked up): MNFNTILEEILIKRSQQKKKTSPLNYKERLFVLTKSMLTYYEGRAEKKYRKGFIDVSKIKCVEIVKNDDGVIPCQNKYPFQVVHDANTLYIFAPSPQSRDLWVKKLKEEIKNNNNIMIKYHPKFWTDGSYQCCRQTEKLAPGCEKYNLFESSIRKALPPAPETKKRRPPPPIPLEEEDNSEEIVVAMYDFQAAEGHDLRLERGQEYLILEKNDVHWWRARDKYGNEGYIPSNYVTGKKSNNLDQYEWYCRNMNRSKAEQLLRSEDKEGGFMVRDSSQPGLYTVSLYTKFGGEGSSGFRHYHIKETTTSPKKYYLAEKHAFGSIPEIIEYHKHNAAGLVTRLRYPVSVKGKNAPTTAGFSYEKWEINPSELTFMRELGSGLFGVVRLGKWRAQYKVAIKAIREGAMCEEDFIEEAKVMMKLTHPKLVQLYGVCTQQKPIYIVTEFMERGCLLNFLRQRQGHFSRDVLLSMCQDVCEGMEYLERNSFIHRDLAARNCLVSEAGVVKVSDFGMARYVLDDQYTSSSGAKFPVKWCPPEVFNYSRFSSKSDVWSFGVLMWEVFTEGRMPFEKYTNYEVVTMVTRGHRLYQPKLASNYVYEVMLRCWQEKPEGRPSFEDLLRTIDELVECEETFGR
UniProt Q9H0K1, sequence (whole entry, looked up): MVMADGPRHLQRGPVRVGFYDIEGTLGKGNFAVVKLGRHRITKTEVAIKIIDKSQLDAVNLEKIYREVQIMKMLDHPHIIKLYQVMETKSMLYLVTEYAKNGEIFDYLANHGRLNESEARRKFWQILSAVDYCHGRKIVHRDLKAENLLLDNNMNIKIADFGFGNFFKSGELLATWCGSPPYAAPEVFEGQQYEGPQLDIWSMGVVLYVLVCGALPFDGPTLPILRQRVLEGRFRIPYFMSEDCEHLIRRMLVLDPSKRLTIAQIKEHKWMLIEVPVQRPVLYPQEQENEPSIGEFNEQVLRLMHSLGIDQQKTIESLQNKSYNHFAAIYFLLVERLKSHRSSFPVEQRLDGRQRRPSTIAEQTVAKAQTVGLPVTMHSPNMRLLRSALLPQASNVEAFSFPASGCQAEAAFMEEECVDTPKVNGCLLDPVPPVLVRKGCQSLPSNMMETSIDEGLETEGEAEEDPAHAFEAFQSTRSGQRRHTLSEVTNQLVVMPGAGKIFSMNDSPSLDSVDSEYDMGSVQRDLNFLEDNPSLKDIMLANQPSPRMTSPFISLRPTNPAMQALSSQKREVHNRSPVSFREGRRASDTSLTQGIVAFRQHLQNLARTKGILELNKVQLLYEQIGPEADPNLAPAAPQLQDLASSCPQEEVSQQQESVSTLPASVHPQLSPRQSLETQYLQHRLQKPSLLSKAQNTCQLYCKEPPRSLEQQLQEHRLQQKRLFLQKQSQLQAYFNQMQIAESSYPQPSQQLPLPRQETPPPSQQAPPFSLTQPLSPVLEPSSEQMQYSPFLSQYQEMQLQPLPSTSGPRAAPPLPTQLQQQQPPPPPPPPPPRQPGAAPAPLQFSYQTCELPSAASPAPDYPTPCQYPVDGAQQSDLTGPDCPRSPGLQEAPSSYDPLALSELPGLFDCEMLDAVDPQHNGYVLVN
UniProt Q04759, sequence (whole entry, looked up): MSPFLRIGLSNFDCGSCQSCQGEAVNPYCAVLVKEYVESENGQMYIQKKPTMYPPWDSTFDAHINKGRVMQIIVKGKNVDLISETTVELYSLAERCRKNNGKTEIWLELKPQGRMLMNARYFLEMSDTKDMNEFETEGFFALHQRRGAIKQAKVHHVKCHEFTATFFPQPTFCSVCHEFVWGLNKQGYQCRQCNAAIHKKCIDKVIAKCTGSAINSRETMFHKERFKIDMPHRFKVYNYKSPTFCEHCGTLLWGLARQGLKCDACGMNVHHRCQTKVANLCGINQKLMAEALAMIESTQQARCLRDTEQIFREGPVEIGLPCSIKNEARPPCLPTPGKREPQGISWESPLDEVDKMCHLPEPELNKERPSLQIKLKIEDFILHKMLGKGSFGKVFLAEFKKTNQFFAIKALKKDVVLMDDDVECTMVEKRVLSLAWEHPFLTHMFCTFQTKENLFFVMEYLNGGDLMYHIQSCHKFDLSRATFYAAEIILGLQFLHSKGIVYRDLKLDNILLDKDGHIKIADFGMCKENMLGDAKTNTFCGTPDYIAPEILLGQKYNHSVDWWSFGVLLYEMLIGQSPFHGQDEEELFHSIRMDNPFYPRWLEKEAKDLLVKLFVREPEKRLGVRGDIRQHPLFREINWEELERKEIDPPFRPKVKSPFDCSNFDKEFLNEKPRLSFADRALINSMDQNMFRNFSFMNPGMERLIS
UniProt Q8IWQ3, sequence (whole entry, looked up): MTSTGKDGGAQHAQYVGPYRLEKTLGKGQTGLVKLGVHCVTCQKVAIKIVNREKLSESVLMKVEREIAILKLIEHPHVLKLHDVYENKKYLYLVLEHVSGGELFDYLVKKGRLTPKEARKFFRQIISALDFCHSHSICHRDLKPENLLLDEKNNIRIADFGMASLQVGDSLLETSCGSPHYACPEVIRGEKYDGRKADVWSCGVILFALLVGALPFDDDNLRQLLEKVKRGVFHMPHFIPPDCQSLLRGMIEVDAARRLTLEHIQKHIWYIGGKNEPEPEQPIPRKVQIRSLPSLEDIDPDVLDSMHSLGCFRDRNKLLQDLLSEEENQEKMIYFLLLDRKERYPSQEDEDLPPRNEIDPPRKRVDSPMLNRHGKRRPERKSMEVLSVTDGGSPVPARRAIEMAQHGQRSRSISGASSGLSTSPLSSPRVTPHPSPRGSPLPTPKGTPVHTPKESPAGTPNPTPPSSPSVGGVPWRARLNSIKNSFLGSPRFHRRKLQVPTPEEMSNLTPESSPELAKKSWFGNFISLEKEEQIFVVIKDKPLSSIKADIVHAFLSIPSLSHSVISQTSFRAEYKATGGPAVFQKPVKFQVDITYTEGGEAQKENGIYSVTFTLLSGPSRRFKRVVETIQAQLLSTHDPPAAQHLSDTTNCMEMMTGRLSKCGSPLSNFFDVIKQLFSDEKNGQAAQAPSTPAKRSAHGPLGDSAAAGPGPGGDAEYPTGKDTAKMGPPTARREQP

Study 1
Host: human
Medium: microsomes or S9
Concentration: 2 µM
Time: 0.5 h
Quantity: remaining compound
COc1ccc2c(c1)C(=O)CC(c1ccccc1)O2 (centres unmarked): 86.3%
CCc1ccc(C2c3cccn3-c3sc4c(c3CN2C(=O)Nc2ccc(OC)c(OC)c2)CCCC4)cc1 (centres unmarked): 15.4%
O=C(NCC1OCCc2sc(F)cc21)c1ccn2nnnc2c1 (centres unmarked): > 100%
CC(=O)NCCc1ccc(S(=O)(=O)N(C)C)cc1: > 99%
Cc1n[nH]c(C)c1CNC(=O)C1CCN(C(=O)c2ncn3c2COC(c2ccc(F)cc2)C3)CC1 (centres unmarked): 68.9%
Cc1cccc(C(=O)/N=c2\c(C)cccn2C(=O)c2cccc(C)c2)c1: 83.1%
Cc1nn2c(N(C)C)cc(Cl)nc2c1Br: 33.1%
CC(C)COc1cc(=O)n2c(c1C(=O)NCc1ccccc1F)CCCCC2: 72.7%
CC(C)COc1cc(=O)n2c(c1C(=O)NC1CCN(C)CC1)CCCCC2: > 99%
O=c1c2cc3c(=O)n(-c4ccccc4)ccc3nc2ccn1CCO: > 100%
CC(C)c1cc(C(C)C)c(S(=O)(=O)NCCCO)c(C(C)C)c1: 1.82%
Cc1ccc(-c2nccn3cc(C(=O)N(C)Cc4cn(C)nc4C)nc23)cc1: 25.7%

Study 2
SMILES: CC(C)CC(=O)N1CCc2nc(-c3ccc(Br)cc3)nc(N(C)Cc3ccccc3)c2C1
Concentration: 0.1 µM
Quantity: remaining binding
SBK1 (Homo sapiens, UniProt Q52WX2); cell-free assay, competition with immobilised ligand: 100%
CDK19 (Homo sapiens, UniProt Q9BWU1); competition binding: 62%
Tyrosine-protein kinase ABL1, phosphorylated (ABL1, Homo sapiens, UniProt P00519, Q252H); cell-free assay, competition with immobilised ligand: 88%
NTRK1 (Homo sapiens, UniProt P04629); cell-free assay, competition with immobilised ligand: 100%
CDC42BPG (Homo sapiens, UniProt Q6DT37); competition binding: 100%
PIK3CA (Homo sapiens, UniProt P42336); cell-free assay, competition with immobilised ligand: 77%
EPHA2 (Homo sapiens, UniProt P29317); cell-free assay, competition with immobilised ligand: 100%
STK36 (Homo sapiens, UniProt Q9NRP7); cell-free assay, competition with immobilised ligand: 78%
YES1 (Homo sapiens, UniProt P07947); cell-free assay, competition with immobilised ligand: 100%
CSNK1G1 (Homo sapiens, UniProt Q9HCP0); cell-free assay, competition with immobilised ligand: 100%

Study 3
Compound: COc1ccc(Cl)cc1NC(=O)Nc1cc(C)nc2ccccc12
Observed: enzyme activity
Mode: inhibitor
Concentration: 0.5 µM
Baseline: control
Quantity: remaining activity
FLT1 (Homo sapiens, UniProt P17948): 86.2%
DYRK1A (Homo sapiens, UniProt Q13627): 103%
PAK1 (Homo sapiens, UniProt Q13153): 94.8%
PAK4 (Homo sapiens, UniProt O96013): 77.9%
SRPK1 (Homo sapiens, UniProt Q96SB4): 82.5%
MARK1 (Homo sapiens, UniProt Q9P0L2): 102%
BRSK2 (Homo sapiens, UniProt Q8IWQ3): 95.2%
TEC (Homo sapiens, UniProt P42680): 110%
CLK2 (Homo sapiens, UniProt P49760): 97.7%
CAMK1 (Homo sapiens, UniProt Q14012): 91.7%
PAK5 (Homo sapiens, UniProt Q9P286): 85.1%
CAMKK1 (Homo sapiens, UniProt Q8N5S9): 113%
MELK (Homo sapiens, UniProt Q14680): 106%
ERBB2 (Homo sapiens, UniProt P04626): 99.7%
ACVRL1 (Homo sapiens, UniProt P37023): 98.6%
PRKCQ (Homo sapiens, UniProt Q04759): 96.7%
CLK1 (Homo sapiens, UniProt P49759): 97.6%
SIK2 (Homo sapiens, UniProt Q9H0K1): 87.8%

Mixed results
CCOC(=O)[C@@H]1CSCC(=O)N[C@H](CC)C(=O)N(C)[C@@H](C)C(=O)N[C@@H](CC(C)C)C(=O)N2CCC[C@@H]2C(=O)N(CC(C)C)CC(=O)N[C@H](CC(C)C)C(=O)N(C)[C@H](C)C(=O)N[C@@H](CC(C)C)C(=O)N1C  logD (hydrocarbon/water): 0.661

Some of these lines once more (study 2):
Tyrosine-protein kinase ABL1, phosphorylated (ABL1, Homo sapiens, UniProt P00519, Q252H); cell-free assay, competition with immobilised ligand: 88%
NTRK1 (Homo sapiens, UniProt P04629); cell-free assay, competition with immobilised ligand: 100%
CDC42BPG (Homo sapiens, UniProt Q6DT37); competition binding: 100%
